Measured values pooled from the literature.
Each line is one published result; not all experiments were run side by side. Several values in a cell are separate wells, animals, samples, runs or records. Numbers after ± are the reported error.

Compound | test | system | conditions | how to read | endpoint | value
CCCCN1C(=O)c2cccc3c(NCCCCCCCCCCN4CCOCC4)ccc(c23)C1=O | – | chloroform | – | – | emission maximum | 511 nm
CC(=O)N[C@@H](CCCCN)C(=O)N[C@H](C(=O)N[C@@H](Cc1ccc(O)cc1)C(=O)N[C@@H](Cc1ccc(O)cc1)C(=O)N[C@@H](CCCNC(=N)N)C(=O)N[C@@H](Cc1ccc(O)cc1)C(=O)N[C@@H](CC(N)=O)C(=O)NCC(=O)N[C@@H](CCCCN)C(=O)N[C@H](C(=O)N[C@@H](Cc1c[nH]c2ccccc12)C(=O)N[C@@H](Cc1c[nH]c2ccccc12)C(=O)N[C@@H](CCCNC(=N)N)C(=O)O)C(C)C)C(C)C | circular dichroism | free peptide in solution | concentration not given, 25 °C, no insulin present | – | β-strand content | 35.2%
C=C(NC(=O)c1csc(-c2nc3c(cc2O)-c2nc(cs2)C(=O)NC(C(C)O)C(=O)NC(=C(C)OC)c2nc(cs2)C(=O)NC2c4nc(cs4)C(=O)NC(COC(=O)c4c5c6c(cccc6n4O)COC(=O)C(OC4CC(C)(O)C(N(C)C)C(C)O4)C2OC5)c2nc-3cs2)n1)C(N)=O (centres unmarked) | – | Sprague-Dawley rats, both sexes, plasma | intravenous infusion, 6 mg/kg, day 7, multiple dosing | – | AUC(0-tau) | 1600 ± 237 ng·h/mL
CS(=O)(=O)c1cc(Cl)cc(-c2cc(Cl)c(Cl)cc2Cl)c1Cl | – | whole cow milk | 20 nM nominal | – | dose fraction in milk fat | 86.7%
CN(C)c1ccc(/C=C/c2cc(=O)cc(/C=C/c3ccc(N(C)C)cc3)o2)cc1 | – | acetonitrile | 10 µM, 298 K | – | emission maximum | 559 nm
COc1cccc(OC)c1-c1cc(C(=O)NC2(C(=O)O)C3CC4CC(C3)CC2C4)nn1-c1ccc(C(=O)N(C)CCOCCOCCN(C)C(=O)[C@H](CCCCNC(=O)[C@H](CC(C)C)NC(=O)C2OC2C(=O)O)NC(=O)CN2CCN(CC(=O)[O-])CCN(CC(=O)[O-])CCN(CC(=O)[O-])CC2)cc1C(C)C.[177Lu+3] (mixture of isomers) | – | mouse, HT-29 xenograft, kidney | 24 h post injection | – | tissue uptake | 6.7 %ID/g
CCCCN1C(=O)c2cccc3c(NCCCCCN4CCOCC4)ccc(c23)C1=O | – | ethyl acetate | – | – | fluorescence lifetime | 9.6 ns
O=C(O)CCCOc1ccc([18F])cc1-c1cc(-c2ccccc2C(F)(F)F)n(-c2ccccc2)n1 | OLINDA/EXM from mouse data, refers to: heart wall | human adult | – | – | absorbed dose | 68.6 µGy/MBq
COc1ccc(CNc2nc([C@H]3CC[C@H](C(=O)O)CC3)nc3sc4ccccc4c23)cc1Cl | – | NSG mice | dose not given, day 3 | – | body weight | 22.1 g and 19.1 g and 21.8 g and 21.6 g
Cc1ccc(CN2C(=O)/C(=N\c3ccc(Cl)cc3Br)c3ccccc32)cc1 | – | mouse, blood | 200 mg/kg | – | RDW | 15.6 ± 0.31%
COCC1CN(C2CCN(c3cc(OC)c(Nc4ncc(Br)c(Nc5ccc6c(c5P(C)(C)=O)OCCO6)n4)cc3C)CC2)C1 | – | EGFR-mutant NSCLC patients | oral, 60 mg once daily | – | patients with adverse events | 100%
C/C(N)=N/C(=N\S(=O)(=O)c1ccc(C(F)(F)F)cc1)N1C[C@H](c2ccccc2)C(c2ccc(Cl)cc2)=N1 | – | male C57BL/6 mouse, liver | oral, 10 mg/kg | – | Cmax | 8890 ng/mL
O=C(Nc1cnccc1-c1ccc([18F])cc1)c1ccnc(NC(=O)C2CC2)c1 | ex vivo gamma counting | GSK-3β transgenic mice, late-stage, muscle | intravenous, 120 min, together with: tariquidar 15 mg/kg iv | – | mean SUV | 0.3
CCC(CC)CNC(=N)NC(=N)NCCCCCCNC(=N)NC(=N)NCC(CC)CC | metabolic stability | monkey, liver microsomes | 2 µM | – | scaled CLint | 24.6 mL/min/kg
Cc1[nH]c(=O)c(CNC(=O)c2cc(Cl)c3c(c2C)O[C@@](C)([C@H]2CC[C@H](N(C)C)CC2)O3)c(C)c1O | – | healthy men, urine and feces | oral, 200 mg [14C]-valemetostat | relative to: dose | excretion | 6.4%
CN(C)C(=O)c1ccnc(N2Cc3cn(Cc4cccc(C(F)(F)F)c4)nc3C2)n1 | metabolic stability | rat, liver microsomes | – | – | half-life | 1.5 h
COc1ccc(Nc2nc(Nc3ccc(OCCOCCOCC[18F])cc3)ncc2Br)cc1 | – | ICR mice, S180 tumour-bearing, liver | intravenous, 370 kBq, 5 min | – | tissue uptake | 4.14 ± 0.12 %ID/g
CC[C@H](C)[C@@H]1NC(=O)[C@H](Cc2ccc(O)cc2)NC(=O)CCCSC[C@@H](C(=O)N(CC(=O)N[C@@H](CC(C)C)C(=O)NCC(N)=O)Cc2ccc(F)cc2)NC(=O)[C@H](CC(N)=O)NC(=O)[C@H](CCC(N)=O)NC1=O | – | human | intranasal, 50 µg single dose | – | adverse drug reactions | 0%
CN(O)C(=O)CCC(=O)NCCCN(CCCCN(CCCNC(=O)CCC(=O)N(C)O)C(=O)CCC(=O)N(C)O)C(=O)CCC(=O)N(C)O.[89Zr] | – | mouse, liver | 1 h | – | tracer uptake | 0.53 %ID/g
COc1cccc(OC)c1-c1cc(C(=O)NC2(C(=O)O)C3CC4CC(C3)CC2C4)nn1-c1ccc(C(=O)N(C)CCCN(C)C(=O)[C@H](CCCCNC(=O)[C@H](CC(C)C)NC(=O)C2OC2C(=O)O)NC(=O)CN2CCN(CC(=O)[O-])CCN(CC(=O)[O-])CCN(CC(=O)[O-])CC2)cc1C(C)C.[177Lu+3] (mixture of isomers) | – | mouse HT-29 xenograft | 168 h, biodistribution | relative to: tumour over spleen | tumour-to-spleen ratio | 2.17
N#C[C@@H]1CC(F)(F)CN1C(=O)CNC(=O)c1ccnc2c(NC(=O)[C@@H](N)CCCCNC(=O)CCOCCOCCOCCOCCOCCOCCNC(=O)CN3CCN(CC(=O)[O-])CCN(CC(=O)[O-])CCN(CC(=O)[O-])CC3)cccc12.[177Lu+3] | – | mouse, U-87 MG tumour xenograft, brain | 24 h | – | tissue uptake | 0.02 ± 0.03 %ID/g

Compound | test | system | conditions | how to read | endpoint | value
CN1CCC[C@]1(C)/C=C/S(=O)(=O)NC(=O)Nc1c2c(cc3c1CCC3)CCC2 | refers to: glucose in urine, not related | human | oral, 50 mg twice daily, 14 days, multiple ascending dose | – | subjects with adverse event | 16.7%
CCCCN1C(=O)c2cccc3c(NCCN4CCOCC4)ccc(c23)C1=O | – | dioxane | – | – | emission maximum | 504 nm
CC(=O)N[C@@H](CC[S+](C)[Ru-4]123([S+](C)CC[C@H](NC(C)=O)C(=O)O)[n+]4ccc5ccccc5c4Nc4cccc([n+]41)-c1cccc([n+]12)Nc1c2ccccc2cc[n+]13)C(=O)[O-].F[P-](F)(F)(F)(F)F (some centres unmarked) | – | DMSO | -20 °C | – | time to degradation | 16 h
CCOC(=O)c1nc2cc(Cl)c(Cl)cc2nc1N1CCN(C(=O)Nc2ccc(N3CCNCC3)cc2)CC1 | – | male mice, plasma | intravenous, 3 mg/kg | – | Vss | 22.4 L/kg
CC(=O)N[C@H](CC(=O)O)C(=O)N[C@H](Cc1c[nH]c2ccccc12)C(=O)N[C@H](Cc1ccccc1)C(=O)N[C@H](CCCCN)C(=O)N[C@H](C)C(=O)N[C@H](Cc1ccccc1)C(=O)N[C@H](Cc1ccc(O)cc1)C(=O)N[C@H](CC(=O)O)C(=O)N[C@H](CCCCN)C(=O)N[C@@H](C(=O)N[C@H](C)C(=O)N[C@H](CCC(=O)O)C(=O)N[C@H](CCCCN)C(=O)N[C@H](Cc1ccccc1)C(=O)N[C@H](CCCCN)C(=O)N[C@H](CCC(=O)O)C(=O)N[C@H](C)C(=O)N[C@H](Cc1ccccc1)C(N)=O)C(C)C | – | high-risk statin-treated men with CHD, plasma | oral, dose not given, median, doses pooled | – | AUC(0-t) | 17.9 ng·h/mL
CC[C@H](C)[C@@H](C(=O)N[C@@H](CC(C)C)C(=O)N[C@@H](CO)C(=O)N[C@@H](CO)C(=O)N[C@H](C(=O)N[C@@H](CCC(=O)O)C(=O)N[C@H](C(=O)NCC(=O)N[C@@H](CO)C(=O)N[C@@H](CC(N)=O)C(=O)N[C@H](C(=O)N1C[C@H](O)C[C@H]1C(N)=O)[C@@H](C)O)C(C)C)[C@@H](C)O)N(C)C(=O)[C@H](C)NC(=O)CN(C)C(=O)[C@H](Cc1ccccc1)NC(=O)[C@H](CO)NC(=O)[C@H](CO)NC(=O)[C@H](CCCNC(=N)N)NC(=O)[C@H](CCC(N)=O)NC(=O)[C@H](CC(C)C)NC(=O)[C@H](Cc1ccccc1)NC(=O)[C@H](CC(=O)O)NC(=O)[C@H](C)NC(=O)[C@H](CC(C)C)NC(=O)[C@H](CCCNC(=N)N)NC(=O)[C@H](CCC(N)=O)NC(=O)[C@@H](NC(=O)[C@H](C)NC(=O)[C@@H]1CSSC[C@H](NC(=O)[C@H](CCCNC(=N)N)NC(=O)CC[C@H](NC(=O)CCCCCCCCCCCCCCCCCCC(=O)O)C(=O)O)C(=O)N[C@@H](CC(N)=O)C(=O)N[C@@H]([C@@H](C)O)C(=O)N[C@@H](C)C(=O)N[C@@H]([C@@H](C)O)C(=O)N1)[C@@H](C)O | LC-MS/MS | male Sprague-Dawley rats, lean, plasma | subcutaneous, 30 nmol/kg single | – | terminal half-life | > 30 h
Cc1nc(N)nc2c1C(=O)N[C@@H](c1ccc(F)cc1-c1cccc(O[11CH3])n1)C2 | ex vivo biodistribution | healthy mice, heart | 60 min post-injection, baseline, vehicle pre-treatment | – | SUV | 1.8 ± 0.3
CCCCN1C(=O)c2cccc3c(NCCCCN4CCOCC4)ccc(c23)C1=O | – | ethylene glycol | – | – | emission maximum | 544 nm
CC(C)(O)c1ncc([S@](N)(=O)=NC(=O)Nc2c3c(cc4c2CCC4)CCC3)s1 | refers to: reproductive, breast disorders | healthy human | oral, 25 mg, 14 days, ECT formulation, twice daily | – | subjects with TEAEs | 13%
COc1ccc(F)cc1C(=O)NCc1ccc(-c2nn([C@@H](C)C(F)(F)F)c(N)c2C(N)=O)cc1 | – | human, plasma | intravenous, 22 µg | – | hepatic metabolic clearance | 1.33 L/h
C=C[C@]1(C)C[C@@H](OC(=O)CSc2ccc(NC(=O)c3ccco3)cc2)[C@]2(C)[C@H](C)CC[C@]3(CCC(=O)[C@H]32)[C@@H](C)[C@@H]1O | – | Mycoplasma gallisepticum-infected chickens, plasma | intramuscular, 5 mg/kg, 10 h | – | plasma concentration | 24.4 ng/mL and 11.1 ng/mL and 14.4 ng/mL and 18.4 ng/mL and 8.78 ng/mL and 11.5 ng/mL and 17.3 ng/mL and 10.4 ng/mL
[123I]c1ccc2nc(-c3ccc(-n4ccnn4)nc3)cn2c1 | – | male Wistar rat, small intestine | intravenous, 4 MBq, 24 h | – | tissue uptake | 0.022 ± 0.008 %ID/g
COc1cccc(OC)c1-c1cc(C(=O)NC2(C(=O)O)C3CC4CC(C3)CC2C4)nn1-c1ccc(C(=O)N(C)CCCN(C)CCCN(C)C(=O)[C@H](CCCCNC(=O)[C@H](CC(C)C)NC(=O)C2OC2C(=O)O)NC(=O)CN2CCN(CC(=O)[O-])CCN(CC(=O)[O-])CCN(CC(=O)[O-])CC2)cc1C(C)C.[177Lu+3] (mixture of isomers) | – | mouse HT-29 xenograft | 24 h, biodistribution | relative to: tumour over pancreas | tumour-to-pancreas ratio | 26.5
O=C(c1ccccc1)N1C(c2ccc(OCC3CCN(CCCF)C3)cc2)c2ccc(O)cc2CC12CC2 (centres unmarked) | – | C57BL/6J mouse, plasma | intraperitoneal, 25 mg/kg, group mean | – | Cmax | 5050 ng/mL
CCCCN1C(=O)c2cccc3c(NCCCCCCCCN4CCOCC4)ccc(c23)C1=O | – | DMSO | – | – | emission maximum | 535 nm
Cc1cnc2nc1Nc1cccc(c1)COC/C=C/COCc1cc(ccc1OCCN1CCOCC1)N2 | – | BALB/c mice, rhEPO-induced polycythemia | 75 mg/kg, day 3 | – | body weight | 18.4 g and 18.9 g and 20.8 g and 19.4 g and 18.6 g and 17.3 g
C=CC(=O)Nc1cc(Nc2nccc(-c3c[nH]c4ccccc34)n2)c(OC)cc1N(C)CCN(C)C | storage stability | human plasma | 10 d, on ice, MQC level | – | recovery | 61.1%
CN(C)C(=O)c1ccnc(N2Cc3cn(Cc4ccc(C#N)cc4)nc3C2)n1 | metabolic stability | rat, liver microsomes | – | – | half-life | 2.67 h
CC(C)C[C@H](NC(=O)[C@@H](CCCCNC(=O)[C@@H](Cc1ccccc1)NC(=O)CCCCCCCNC(=O)CN1CCN(CC(=O)O)CCN(CC(=O)O)CCN(CC(=O)O)CC1)NC(=O)[C@H](Cc1ccc(O)cc1)NC(=O)[C@H](CO)NC(=O)[C@H](Cc1c[nH]c2ccccc12)NC(=O)[C@H](Cc1c[nH]cn1)NC(=O)[C@@H]1CCC(=O)N1)C(=O)N[C@@H](CCCNC(=N)N)C(=O)N1CCC[C@H]1C(=O)NCC(N)=O [indium-111 labelled] | – | male athymic nude mice, DU-145 prostate cancer xenograft, urine | intravenous, 0.037 MBq, 0.5 h | – | excreted dose | 59.9 ± 5.96%
CCCC[C@H](NC(=O)CNC(=O)CNC(=O)[C@H](CCCCNC(=O)[C@H](CC(=O)O)NC(=O)C(C)c1ccc(CC(C)C)cc1)NC(=O)CN1CCN(CC(=O)O)CCN(CC(=O)O)CCN(CC(=O)O)CC1)C(=O)N[C@H]1CC(=O)NCCCC[C@@H](C(N)=O)NC(=O)[C@H](Cc2c[nH]c3ccccc23)NC(=O)[C@H](CCCNC(=N)N)NC(=O)[C@@H](Cc2ccccc2)NC(=O)[C@H](Cc2c[nH]cn2)NC1=O (some centres unmarked) [lutetium-177 labelled] | – | C57 mice, tumour | 2 h | relative to: liver | tumour-to-tissue ratio | 9.42
